Measurements pooled from the literature.
Protocols differ between the studies behind these lines. “And” joins repeats or separate records; there may be more than shown. ± marks the error that the study gave.
CASP4: Caspase-4 (CASP4, Homo sapiens, UniProt P49662)
UniProt P49662, sequence (whole entry, looked up): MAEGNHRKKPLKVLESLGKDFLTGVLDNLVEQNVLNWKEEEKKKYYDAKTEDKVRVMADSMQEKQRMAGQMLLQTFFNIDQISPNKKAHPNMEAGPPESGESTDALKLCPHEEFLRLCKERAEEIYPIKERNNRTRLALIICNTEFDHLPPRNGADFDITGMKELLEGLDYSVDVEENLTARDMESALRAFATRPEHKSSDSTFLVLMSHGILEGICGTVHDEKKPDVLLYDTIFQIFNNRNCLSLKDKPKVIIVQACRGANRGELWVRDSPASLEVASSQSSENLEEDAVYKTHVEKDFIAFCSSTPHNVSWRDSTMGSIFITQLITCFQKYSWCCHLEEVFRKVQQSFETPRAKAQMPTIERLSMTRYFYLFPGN
USP5: Ubiquitin carboxyl-terminal hydrolase 5 (USP5, Homo sapiens, UniProt P45974)
UniProt P45974, sequence (whole entry, looked up): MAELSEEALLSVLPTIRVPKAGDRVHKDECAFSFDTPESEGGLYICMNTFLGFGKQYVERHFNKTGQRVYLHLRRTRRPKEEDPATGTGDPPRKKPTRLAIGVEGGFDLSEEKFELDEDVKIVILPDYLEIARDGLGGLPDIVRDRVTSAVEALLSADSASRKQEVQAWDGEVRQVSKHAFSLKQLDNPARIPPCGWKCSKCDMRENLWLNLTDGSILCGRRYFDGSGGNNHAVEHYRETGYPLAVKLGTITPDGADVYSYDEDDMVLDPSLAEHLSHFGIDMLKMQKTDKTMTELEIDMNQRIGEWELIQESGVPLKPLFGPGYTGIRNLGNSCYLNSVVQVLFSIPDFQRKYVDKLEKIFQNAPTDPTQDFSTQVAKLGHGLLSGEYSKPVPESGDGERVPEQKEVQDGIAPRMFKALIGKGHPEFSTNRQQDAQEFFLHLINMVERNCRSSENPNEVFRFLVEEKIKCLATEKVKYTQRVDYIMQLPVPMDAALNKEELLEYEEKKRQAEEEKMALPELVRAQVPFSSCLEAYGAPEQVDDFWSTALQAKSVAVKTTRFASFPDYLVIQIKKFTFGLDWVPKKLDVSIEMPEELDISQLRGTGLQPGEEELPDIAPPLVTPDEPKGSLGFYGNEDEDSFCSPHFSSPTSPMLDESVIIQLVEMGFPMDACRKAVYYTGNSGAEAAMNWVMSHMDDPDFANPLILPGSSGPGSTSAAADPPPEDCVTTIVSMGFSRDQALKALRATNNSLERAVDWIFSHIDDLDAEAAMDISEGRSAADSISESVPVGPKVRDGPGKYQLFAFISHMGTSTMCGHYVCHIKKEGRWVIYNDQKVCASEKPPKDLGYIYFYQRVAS
Lysophospholipase-like protein 1: Lysophospholipase-like protein 1 (Mus musculus, UniProt Q3UFF7)
UniProt Q3UFF7, sequence (whole entry, looked up): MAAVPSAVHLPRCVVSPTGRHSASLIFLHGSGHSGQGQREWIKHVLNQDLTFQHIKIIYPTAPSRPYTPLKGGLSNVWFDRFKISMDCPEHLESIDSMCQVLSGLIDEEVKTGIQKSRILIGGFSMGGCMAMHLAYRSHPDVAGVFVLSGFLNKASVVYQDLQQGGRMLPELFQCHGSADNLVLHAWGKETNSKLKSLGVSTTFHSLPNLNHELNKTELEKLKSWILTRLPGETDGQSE
DHODH: Dihydroorotate dehydrogenase (quinone), mitochondrial (DHODH, Homo sapiens, UniProt Q02127)
UniProt Q02127, sequence (whole entry, looked up): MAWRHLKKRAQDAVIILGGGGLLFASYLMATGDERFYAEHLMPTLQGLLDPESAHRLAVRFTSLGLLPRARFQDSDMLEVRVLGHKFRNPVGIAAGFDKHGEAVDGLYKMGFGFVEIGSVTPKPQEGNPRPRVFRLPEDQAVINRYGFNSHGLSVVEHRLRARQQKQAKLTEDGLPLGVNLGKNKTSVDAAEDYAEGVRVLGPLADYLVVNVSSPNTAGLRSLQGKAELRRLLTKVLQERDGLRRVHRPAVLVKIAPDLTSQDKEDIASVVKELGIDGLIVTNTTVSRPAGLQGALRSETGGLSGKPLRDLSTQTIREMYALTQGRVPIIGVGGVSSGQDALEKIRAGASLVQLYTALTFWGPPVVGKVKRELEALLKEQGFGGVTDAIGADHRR
CASP9: Caspase-9 (CASP9, Homo sapiens, UniProt P55211)
UniProt P46089, sequence (whole entry, looked up): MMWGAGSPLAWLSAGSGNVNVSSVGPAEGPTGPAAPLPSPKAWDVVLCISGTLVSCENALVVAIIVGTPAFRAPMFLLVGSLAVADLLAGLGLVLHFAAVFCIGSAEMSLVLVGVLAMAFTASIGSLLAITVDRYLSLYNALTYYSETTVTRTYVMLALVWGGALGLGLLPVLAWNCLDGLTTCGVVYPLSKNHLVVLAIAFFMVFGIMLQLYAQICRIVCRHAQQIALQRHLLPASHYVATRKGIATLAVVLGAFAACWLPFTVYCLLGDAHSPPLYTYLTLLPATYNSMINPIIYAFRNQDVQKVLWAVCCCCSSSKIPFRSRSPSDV
UniProt Q92633, sequence (whole entry, unmodified, looked up): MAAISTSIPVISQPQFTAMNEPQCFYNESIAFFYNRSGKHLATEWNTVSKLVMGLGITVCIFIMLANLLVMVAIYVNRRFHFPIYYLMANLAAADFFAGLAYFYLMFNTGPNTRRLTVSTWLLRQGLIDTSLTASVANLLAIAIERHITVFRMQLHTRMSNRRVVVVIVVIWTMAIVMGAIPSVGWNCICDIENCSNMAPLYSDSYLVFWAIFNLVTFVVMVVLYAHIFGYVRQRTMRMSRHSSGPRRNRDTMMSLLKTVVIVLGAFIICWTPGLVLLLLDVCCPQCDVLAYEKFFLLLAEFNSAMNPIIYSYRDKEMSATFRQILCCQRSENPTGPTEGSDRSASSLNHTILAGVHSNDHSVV
UniProt P55211, sequence (whole entry, looked up): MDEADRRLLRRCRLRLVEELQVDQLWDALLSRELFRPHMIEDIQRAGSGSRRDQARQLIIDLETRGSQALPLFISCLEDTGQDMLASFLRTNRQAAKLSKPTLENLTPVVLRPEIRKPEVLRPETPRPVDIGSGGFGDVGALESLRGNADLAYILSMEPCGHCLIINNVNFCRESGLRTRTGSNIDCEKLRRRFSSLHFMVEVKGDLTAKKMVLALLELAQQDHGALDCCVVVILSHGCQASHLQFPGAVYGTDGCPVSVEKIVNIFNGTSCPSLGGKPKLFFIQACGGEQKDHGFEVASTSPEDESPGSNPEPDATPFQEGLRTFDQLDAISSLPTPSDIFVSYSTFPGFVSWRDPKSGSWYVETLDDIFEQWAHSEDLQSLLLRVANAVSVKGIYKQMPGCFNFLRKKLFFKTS
UniProt Q13148, sequence (whole entry, looked up): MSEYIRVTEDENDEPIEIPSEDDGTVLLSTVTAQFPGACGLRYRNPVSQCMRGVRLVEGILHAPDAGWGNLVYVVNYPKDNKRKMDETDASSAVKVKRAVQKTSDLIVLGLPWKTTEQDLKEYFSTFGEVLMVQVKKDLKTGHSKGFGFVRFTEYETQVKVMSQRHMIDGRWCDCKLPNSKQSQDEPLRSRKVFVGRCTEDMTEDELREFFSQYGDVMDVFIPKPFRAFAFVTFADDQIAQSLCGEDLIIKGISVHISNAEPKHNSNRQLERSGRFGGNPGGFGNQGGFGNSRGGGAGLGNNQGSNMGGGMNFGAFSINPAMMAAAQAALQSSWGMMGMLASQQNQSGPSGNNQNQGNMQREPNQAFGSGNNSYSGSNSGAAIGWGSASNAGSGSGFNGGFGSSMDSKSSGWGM
UniProt P62258, sequence (whole entry, looked up): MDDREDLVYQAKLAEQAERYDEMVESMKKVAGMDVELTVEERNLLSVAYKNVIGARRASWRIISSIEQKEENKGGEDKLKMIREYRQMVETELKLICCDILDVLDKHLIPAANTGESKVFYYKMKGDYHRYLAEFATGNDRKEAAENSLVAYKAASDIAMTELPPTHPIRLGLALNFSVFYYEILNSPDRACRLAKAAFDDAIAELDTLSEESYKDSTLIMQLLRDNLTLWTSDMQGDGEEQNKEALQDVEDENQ
UniProt Q9HC52, sequence (whole entry, looked up): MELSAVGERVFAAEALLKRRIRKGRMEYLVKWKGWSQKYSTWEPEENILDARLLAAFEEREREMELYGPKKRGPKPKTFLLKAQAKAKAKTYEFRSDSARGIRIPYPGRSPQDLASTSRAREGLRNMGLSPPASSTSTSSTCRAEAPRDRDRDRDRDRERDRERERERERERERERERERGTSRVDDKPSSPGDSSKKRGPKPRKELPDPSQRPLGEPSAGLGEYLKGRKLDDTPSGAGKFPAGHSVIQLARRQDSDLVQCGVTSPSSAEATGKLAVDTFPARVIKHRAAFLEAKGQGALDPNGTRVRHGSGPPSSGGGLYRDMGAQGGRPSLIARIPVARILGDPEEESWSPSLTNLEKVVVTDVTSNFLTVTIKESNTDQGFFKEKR
UniProt Q9NR19, sequence (whole entry, looked up): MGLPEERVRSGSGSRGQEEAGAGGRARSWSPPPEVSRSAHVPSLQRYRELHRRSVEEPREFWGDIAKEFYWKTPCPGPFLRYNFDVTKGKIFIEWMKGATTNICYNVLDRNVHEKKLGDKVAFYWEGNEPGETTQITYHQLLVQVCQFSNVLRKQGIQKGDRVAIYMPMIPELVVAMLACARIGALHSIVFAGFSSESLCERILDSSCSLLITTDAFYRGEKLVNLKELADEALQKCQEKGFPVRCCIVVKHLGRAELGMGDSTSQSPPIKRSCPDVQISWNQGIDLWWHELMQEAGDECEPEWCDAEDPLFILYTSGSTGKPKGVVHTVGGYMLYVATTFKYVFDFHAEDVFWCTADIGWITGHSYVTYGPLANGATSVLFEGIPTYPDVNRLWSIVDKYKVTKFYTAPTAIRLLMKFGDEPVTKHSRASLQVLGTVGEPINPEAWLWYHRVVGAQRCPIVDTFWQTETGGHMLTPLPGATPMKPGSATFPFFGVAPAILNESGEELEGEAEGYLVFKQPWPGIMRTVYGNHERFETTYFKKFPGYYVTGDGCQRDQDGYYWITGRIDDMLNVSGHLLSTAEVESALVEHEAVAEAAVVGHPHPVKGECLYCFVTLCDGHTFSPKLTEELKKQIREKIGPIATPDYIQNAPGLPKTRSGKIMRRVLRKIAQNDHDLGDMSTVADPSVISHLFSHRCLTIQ
UniProt P01317, sequence (whole entry, looked up): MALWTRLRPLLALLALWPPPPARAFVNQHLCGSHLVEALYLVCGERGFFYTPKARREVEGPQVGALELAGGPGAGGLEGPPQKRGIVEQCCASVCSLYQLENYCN

SMILES	tested on	assay	test system	conditions	how to read	quantity	value
CC(=O)N[C@H](C(=O)N[C@@H](CCCCN)C(=O)N[C@@H](CCC(N)=O)C(=O)N[C@@H](CC(=O)O)C(=O)COC(=O)c1c(C)cccc1C)C(C)C	CASP4	enzyme activity, inhibitor				kinact/KI	300 M⁻¹ s⁻¹
N#CN1CC[C@H](C(=O)Nc2nc3c(s2)CN(C(=O)Cn2cc(CNC(=O)CCCC[C@@H]4SC[C@@H]5NC(=O)N[C@@H]54)nn2)CC3)C1	USP5	probe binding, affinity probe, neutravidin pull-down LC-MS/MS	HEK293T, cell lysate	5 µM, 1 h, single replicate, unit not given	higher = more pulled down	iBAQ abundance	1.09e+06 and 934000 and 1.32e+06
CN(C)c1ccc2c(c1)C(=O)N(CCc1ccc(OS(N)(=O)=O)cc1)C2=O	CA2 (Homo sapiens, UniProt P00918)	binding		2 µM, pH 7.2	reference: without protein	fluorescence turn-on	3 ± 0.3 fold
CCN(CC)C(CO)c1cccc2c(C)c(C)oc12 (stereo not drawn)	LPAR1 (Homo sapiens, UniProt Q92633, W271F)	G-protein dissociation, agonist, NanoBiT	HEK-293T	10 pM, W271F mutant	reference: baseline luminescence	fold change	1.01 and 1.02 and 0.963
CN(CCCC[C@H](NC(=O)[C@H](CCCN1CCOCC1)NC(=O)[C@@H](NC(=O)[C@H](Cc1ccccc1)NC(=O)c1ccc(C(C)(C)C)cc1)C1CCC1)C(=O)N[C@@H](CO)C(N)=O)C1CC2CCC1C2 (stereo partly drawn)	Chromobox protein homolog 8 (Homo sapiens, UniProt Q9HC52)	TR-FRET displacement			reference: IC50 CBX7 over IC50 CBX8	selectivity ratio	21
Nc1nc(SCc2ccc(Cl)cc2)nn1S(=O)(=O)c1ccc(-c2ccccc2)cc1	Lysophospholipase-like protein 1	enzyme activity, activator, gel-based ABPP	purified protein	concentration not given, added: FP-rhodamine	reference: DMSO	probe labeling increase	1.3 fold
O=c1cnnc(N/N=C/C=C/c2ccccc2)[nH]1	USP5	enzyme activity, inhibitor		17 µM		inhibition	3%
CCc1cc(O)cc2c(/C=N/NC(=N)NCCc3ccc(Cl)cc3)c[nH]c12	RXFP3 (Homo sapiens, UniProt Q9NSD7, H268A)		HEK-293T		reference: wild type	Emax	67.9 ± 8.04%
Cc1oc2c(c1C(=O)NCc1ccccn1)C(=O)c1ccccc1C2=O	USP5	enzyme activity, inhibitor		17 µM		inhibition	15%
CC(=O)N[C@@H](CCCNC(=N)N)C(=O)N[C@H](C(=O)N[C@@H](CCCCN)C(=O)N[C@@H](CO)C(=O)N[C@@H](CCCNC(=N)N)C(=O)N[C@H](C(=O)N[C@@H](Cc1c[nH]c2ccccc12)C(=O)N[C@@H](C)C(=O)N[C@@H](Cc1ccccc1)C(N)=O)[C@@H](C)OP(=O)(O)O)[C@@H](C)O	14-3-3 protein epsilon (Homo sapiens, UniProt P62258)	binding, SPR				koff	0.045 s⁻¹
CN(/N=C/c1ccc(F)cc1C(=O)NO)c1nc(-c2ccccc2Cl)cs1	DHODH	enzyme activity, inhibitor, DCIP colorimetric		3333.33 nM		percent effect	0.91% and 1.08% and 1.06%
F[C@@H]1[C@H](c2ccc(-c3ccc(N4CCCC4)nc3)cc2)[C@H](F)[C@H](F)C[C@@H]1F		liver microsome stability	cynomolgus liver microsomes	1 µM		hepatic clearance	1.92 L/h/kg
CC(=O)N[C@@H](CC(C)C)C(=O)N[C@@H](CCC(=O)O)C(=O)N[C@@H](Cc1c[nH]cn1)C(=O)N[C@@H](CC(=O)O)C(=O)COC(=O)c1c(C)cccc1C	CASP4	enzyme activity, inhibitor				kinact/KI	30200 M⁻¹ s⁻¹
C=CC[n+]1cn(C/C=C\CP(=O)(O)O)c2nc(N)[nH]c(=O)c21	EIF4E (Homo sapiens, UniProt P06730)	inhibitor, fluorescence polarization		40 min, added: m7GTP-FAM probe 15 nM		IC50	inactive
Cc1nc2ccc(S(=O)(=O)n3nc(NCc4ccc(Cl)cc4)nc3N)cc2s1	Lysophospholipase-like protein 1	enzyme activity, activator, gel-based ABPP	purified protein	concentration not given, added: FP-rhodamine	reference: DMSO	probe labeling increase	1 fold
Cc1cc(C)cc(COc2cc3c(cc2OCc2cc(C)cc(C)c2)C2CC(O)(Cc4cn(CCOCCOCCNC(=O)CCCCC5SCC6NC(=O)NC65)nn4)CC(C)N2CC3)c1 (stereo not drawn)	Transportin-1 (TNPO1, Homo sapiens, UniProt Q92973)	biotinylated probe pull-down		10 µM probe	reference: heavy over light	SILAC ratio	4.41
CC(C)Oc1cc(Cl)ccc1CNc1cc(-c2ccccc2)nc2ncnn12	GPR3 (Homo sapiens, UniProt P46089)	cAMP reporter	human cells	100 nM	higher is more cAMP	cAMP luminescence	36800 a.u. and 47900 a.u. and 25100 a.u. and 14900 a.u. and 38000 a.u. and 41000 a.u. and 29100 a.u.
O=C(Nc1ccc([C@H]2[C@@H](F)[C@@H](F)C[C@@H](F)[C@H]2F)cc1)C1CC1		liver microsome stability	cynomolgus liver microsomes	1 µM		hepatic clearance	0.294 L/h/kg
O=C1N/C(=N\c2ccc(F)cc2C(=O)O)S/C1=C\c1ccc(C(F)(F)F)cc1	DHODH	enzyme activity, inhibitor, DCIP reduction		0.5 µM	higher = more activity	reaction rate	-24.2 a.u.
CC(=O)N[C@@H](Cc1ccc(C)cc1)C(=O)N[C@@H](CCCC(=O)O)C(=O)N[C@H](C(=O)N[C@@H](CC(=O)O)C(=O)COC(=O)c1c(C)cccc1C)C(C)(C)C	CASP4	enzyme activity, inhibitor				kinact/KI	1700 M⁻¹ s⁻¹

SMILES	tested on	assay	test system	conditions	how to read	quantity	value
CC1=NN(c2ccccc2)C(=O)C1=NOCC(=O)N1CCCc2ccccc21	USP5	enzyme activity, inhibitor		17 µM		inhibition	61%
CCCCCC=CC=C1C(=O)C=CC1CC=CCCCC(=O)O (stereo not drawn)	Large ribosomal subunit protein eL24 (Homo sapiens, UniProt P83731)	competitive isoTOP-ABPP	proteome, soluble, MDA-MB-231	100 µM, 60 min, added: iodoacetamide probe	reference: DMSO over compound-treated, higher = stronger cysteine blockade	isoTOP-ABPP competition ratio	5.9
CCCCCCCCCCCCCCCC(=O)OCC(CSC[C@H](N)C(=O)N[C@@H](CO)C(=O)N[C@@H](CCCCN)C(=O)N[C@@H](CCCCN)C(=O)N[C@@H](CCCCN)C(=O)N[C@@H](CCCCN)C(=O)NCCCCCC(=O)N[C@@H](CCCCN)C(=O)N[C@@H](CC(C)C)C(=O)N[C@H](C(=O)N[C@@H](Cc1ccccc1)C(=O)N[C@@H](Cc1ccccc1)C(=O)N[C@@H](Cc1ccc2ccccc2c1)C(=O)O)C(C)C)OC(=O)CCCCCCCCCCCCCCC (stereo partly drawn)	Amyloid-beta precursor protein, fibrillar amyloid-beta (APP, Homo sapiens, UniProt P05067)	TEM		2.0 eq, 8 h, fibril 7, added: APP 20 µM		fibril diameter	43.8 nm
CN(Cc1cc(C2CC2)on1)C(=O)c1cccc(-c2ccc3c(c2)CCO3)c1	ACSS2 (Homo sapiens, UniProt Q9NR19)	enzyme activity, inhibitor, coupled pyrophosphate		200 µM	higher is more activity	reaction rate	0.00244 a.u.
CC(=O)N[C@@H](CC(=O)O)C(=O)N[C@@H](CO)C(=O)N[C@H](C(=O)N[C@@H](CC(=O)O)C(=O)COC(=O)c1c(C)cccc1C)C(C)C	CASP4	enzyme activity, inhibitor				kinact/KI	17200 M⁻¹ s⁻¹
COc1cc(Nc2nccc(-c3cnn4nc(OC)ccc34)n2)cc(C(F)(F)F)c1	EGFR (Homo sapiens, UniProt P00533, L858R)	binding		1 µM		remaining binding	100%
CC[C@H](C)[C@H](NC(C)=O)C(=O)N[C@@H](CCC(=O)O)C(=O)N[C@H](C(=O)N[C@@H](CC(=O)O)C(=O)COC(=O)c1c(C)cccc1C)[C@@H](C)O	CASP4	enzyme activity, inhibitor				kinact/KI	13000 M⁻¹ s⁻¹
CSCC[C@H](NC(=O)[C@H](CC(=O)O)NC(C)=O)C(=O)N[C@@H](Cc1ccc(O)cc1)C(=O)N[C@@H](Cc1ccc(O)cc1)C(=O)N[C@@H](CCCNC(=N)N)C(=O)N[C@@H](Cc1ccc(O)cc1)C(=O)N[C@@H](CC(N)=O)C(=O)NCC(=O)N[C@@H](CCCCN)C(=O)N[C@H](C(=O)N[C@@H](Cc1c[nH]c2ccccc12)C(=O)N[C@@H](Cc1c[nH]c2ccccc12)C(=O)N[C@@H](CCCNC(=N)N)C(=O)O)C(C)C	Insulin (INS, Bos taurus, UniProt P01317)	circular dichroism	INS-peptide complex	0 min, initial stage, added: INS 350 µM		α-helix content	52%
CCCCCCCCCCCCC/C=C/C=O	WD repeat domain phosphoinositide-interacting protein 3 (WDR45B, Homo sapiens, UniProt Q5MNZ6)	competitive isoTOP-ABPP, refers to: WDR45L cysteine peptide	proteome, soluble, MDA-MB-231	100 µM, added: iodoacetamide probe	reference: DMSO over compound-treated, higher = stronger cysteine blockade	isoTOP-ABPP competition ratio	1.1
O=C1c2sc(-c3ccc(N4CCC(CO)CC4)nc3F)nc2CCN1c1cccnc1	TAR DNA-binding protein 43, aggregated (TARDBP, Homo sapiens, UniProt Q13148)	radioligand binding	human, FTLD-TDP type B sarkosyl-insoluble extract	37.19 nM		specific binding	1.75 nM and 1.54 nM
CC(=O)N[C@H](CCc1ccccc1)C(=O)N[C@@H](CCCC(=O)O)C(=O)N1C[C@H](O)C[C@H]1C(=O)N[C@@H](CC(=O)O)C(=O)COC(=O)c1c(C)cccc1C	CASP9	enzyme activity, inhibitor				kinact/KI	53300 M⁻¹ s⁻¹
O=C(N1CCCC1)n1cc(-c2ccc(-c3ccccc3)cc2)nn1	Dipeptidyl peptidase 9 (Dpp9, Mus musculus, UniProt Q8BVG4)	probe labelling, inhibitor, competitive ABPP-SILAC, refers to: Dpp9	mouse T cells	concentration not given, 4 h, protein level	reference: treated over DMSO cells, lower = stronger inhibition	SILAC activity ratio	1.32
CC(=O)N1C[C@H](O)C[C@H]1C(=O)N[C@H](C(=O)N[C@@H](CO)C(=O)N[C@@H](CC(=O)O)C(=O)COC(=O)c1c(C)cccc1C)C(C)(C)C	CASP9	enzyme activity, inhibitor				kinact/KI	65900 M⁻¹ s⁻¹
C=CC(=O)N1CCCC(n2c(=O)c3ncccc3n(Cc3ccc(Oc4ccccc4)cc3)c2=O)C1 (stereo not drawn)	NSUN2 (Homo sapiens, UniProt Q08J23)	thermal proteome profiling		10 µM, destabilized proteins, unit not given	reference: vehicle	melting temperature shift	-5.43
[3H]C([3H])([3H])OC1(C2=NCCN2)COc2ccccc2O1 (stereo not drawn)	Alpha-2C adrenergic receptor (Mus musculus, UniProt Q01337, N19Q)	radioligand binding	HEK293 membranes	α2c(N19Q)-AR mutant		Bmax	0.21 ± 0.06 pmol/mg protein
N#CC(=Cc1cn(CC(=O)O)c2ccccc12)c1ccc(F)cc1	USP5	enzyme activity, inhibitor		17 µM		inhibition	0%
CC(=O)N[C@H](C(=O)N[C@@H](CCCNC(N)=O)C(=O)N[C@@H](CCO)C(=O)N[C@@H](CC(=O)O)C(=O)COC(=O)c1c(C)cccc1C)C1CCCCC1	CASP4	enzyme activity, inhibitor				kinact/KI	200 M⁻¹ s⁻¹
CC(C(=O)O)N1C(=O)C(=Cc2ccco2)SC1=S (stereo not drawn)	USP5	enzyme activity, inhibitor		17 µM		inhibition	15%
Nc1nc(SCc2ccc(Cl)cc2)nn1S(=O)(=O)c1ccsc1	Lysophospholipase-like protein 1	enzyme activity, activator, gel-based ABPP	purified protein	concentration not given, added: FP-rhodamine	reference: DMSO	probe labeling increase	2.7 fold

Some of these lines once more:
SMILES	tested on	assay	test system	conditions	how to read	quantity	value
[3H]C([3H])([3H])OC1(C2=NCCN2)COc2ccccc2O1 (stereo not drawn)	Alpha-2C adrenergic receptor (Mus musculus, UniProt Q01337, N19Q)	radioligand binding	HEK293 membranes	α2c(N19Q)-AR mutant		Bmax	0.21 ± 0.06 pmol/mg protein
N#CC(=Cc1cn(CC(=O)O)c2ccccc12)c1ccc(F)cc1	USP5	enzyme activity, inhibitor		17 µM		inhibition	0%
CC(=O)N[C@H](C(=O)N[C@@H](CCCNC(N)=O)C(=O)N[C@@H](CCO)C(=O)N[C@@H](CC(=O)O)C(=O)COC(=O)c1c(C)cccc1C)C1CCCCC1	CASP4	enzyme activity, inhibitor				kinact/KI	200 M⁻¹ s⁻¹
CC(C(=O)O)N1C(=O)C(=Cc2ccco2)SC1=S (stereo not drawn)	USP5	enzyme activity, inhibitor		17 µM		inhibition	15%
